Published values of several laboratories.
A part holds a random share of what one study measured. Changes are numbered by the printed parent chain.

Sample 1 — target: CCNA1, cyclin fold, Cln2 fusion (human); technique: yeast growth competition, sequencing; medium: yeast; notes: weak parent motif; baseline: not given; direction: higher = stronger binding; endpoint: normalised enrichment score
Parent: CDC6 docking peptide (human); TLKGRRLVFDNQL; partner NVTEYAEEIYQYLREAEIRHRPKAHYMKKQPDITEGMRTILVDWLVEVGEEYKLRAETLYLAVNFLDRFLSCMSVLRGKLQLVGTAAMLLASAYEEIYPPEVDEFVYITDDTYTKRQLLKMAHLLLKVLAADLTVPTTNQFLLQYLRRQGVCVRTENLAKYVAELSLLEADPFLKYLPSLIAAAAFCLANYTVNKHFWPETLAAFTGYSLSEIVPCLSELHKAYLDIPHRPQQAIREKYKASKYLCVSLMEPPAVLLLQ
Variant = TLKGRRMVFDNQL [L7M]; result = 0.347
Variant = TLKGRRLVFDNQT [L13T]; result = -0.117
Variant = TLKGRRLVFVNQL [D10V]; result = -0.202
Variant = TLKGPRLVFDNQL [R5P]; result = 0.197
Variant = TLKIRRLVFDNQL [G4I]; result = 0.748

Sample 2 — technique: DHFR PCA, deep sequencing; medium: yeast; with: (+)-ABA 0 µM; baseline: wild-type fitted maximum; direction: higher = stronger binding; endpoint: relative binding score
Target: ABI1, truncated, D143A, DHFR fusion (Arabidopsis thaliana)
Notes: methotrexate growth selection, single substitutions
Parent: PYL1, truncated, DHFR fusion (Arabidopsis thaliana); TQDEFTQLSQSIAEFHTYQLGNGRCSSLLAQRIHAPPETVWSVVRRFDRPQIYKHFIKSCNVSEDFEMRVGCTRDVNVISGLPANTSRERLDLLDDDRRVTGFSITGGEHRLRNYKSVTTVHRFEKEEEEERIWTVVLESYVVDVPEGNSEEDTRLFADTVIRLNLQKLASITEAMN; partner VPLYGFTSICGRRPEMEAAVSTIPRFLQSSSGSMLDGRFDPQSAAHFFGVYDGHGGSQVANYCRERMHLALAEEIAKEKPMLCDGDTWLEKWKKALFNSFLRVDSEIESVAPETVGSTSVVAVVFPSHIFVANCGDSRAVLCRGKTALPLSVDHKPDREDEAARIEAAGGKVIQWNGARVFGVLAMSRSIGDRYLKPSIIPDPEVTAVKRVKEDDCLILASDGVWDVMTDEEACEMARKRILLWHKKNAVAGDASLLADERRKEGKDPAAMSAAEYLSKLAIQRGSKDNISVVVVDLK
Variant = N177E; result = 14.9%
Variant = S9V; result = 19.7%
Variant = A30K; result = 8.59%
Variant = K168Y; result = 1.01%

Sample 3 — technique: aptamer microarray, sandwich; form: DNA with 2'F-ANA; medium: in vitro; concentration: 200 nM; with: Cy3 exosite-II aptamer, 400 nM; direction: higher = stronger binding; endpoint: mean fluorescence intensity; oligonucleotide: GGTTGGTGTGGTTGG
Target: Prothrombin, mature alpha-thrombin (F2, Homo sapiens, UniProt P00734)
Notes: whole 15-mer aptamer, many near background
Modification = 2'F-ANA at 2 3 7 8 11 14 15; result = 465 a.u.
Modification = 2'F-ANA at 4 6 8 10 12 13; result = 80.4 a.u.
Modification = 2'F-ANA at 4 8 9 10 11 13 14 15; result = 54.6 a.u.
Modification = 2'F-ANA at 1 5 11 12 14; result = 48.1 a.u.
Modification = 2'F-ANA at 3 4 8 10 11 12 13 14; result = 175 a.u.

Further values, each from its own experiment
Molecule = PhoQ, residues 284 288 289 292 302 303 SLGVVW; target = PhoP, residues 12 14 15 18 19 FWNTL (Escherichia coli, UniProt P23836); assay = Sort-seq, item: YFP reporter; test system = E. coli; conditions = PhoQ-PhoP variant library, with: 10 µM Mg2+; scale = baseline: high Mg2+ state, higher = stronger signaling; endpoint = fold induction; result = 17.8
